{"data": "Assay results of several laboratories", "note": "Compare with care: the assays were run in different laboratories. Several values in a cell are separate wells, animals, samples, runs or records. ± marks the error that the study gave."}
{"SMILES": "CC[C@@H](C)[C@@H](NC(=O)[C@@H](Cc1ccc(O)cc1)NC(=O)[C@H]1CCCN1C(=O)[C@@H](CCCNC(=N)N)NC(=O)[C@H](N)Cc1c[nH]cn1)C(=O)N[C@H](C)C(=O)N[C@H](Cc1c[nH]cn1)C(=O)N[C@H](CCCNC(=N)N)C(=O)N[C@H](CCCCNC(=O)c1cccc(S(=O)(=O)F)c1)C(=O)N[C@H](Cc1ccc(O)cc1)C(=O)N[C@H](CO)C(=O)N[C@H](Cc1ccccc1)C(N)=O", "test system": "10% human serum", "setting": "4 h", "endpoint": "remaining compound", "result": "110% and 109%"}
{"SMILES": "CC(=O)OC/C(C)=C/CCP(=O)(OCOC(=O)c1ccccc1)Oc1ccc(C(C)C)cc1 (stereo not drawn)", "test system": "50% Sprague-Dawley rat plasma", "setting": "100 µM, 2 h, pH 7.5, 37 °C", "endpoint": "remaining compound", "result": "1.1%"}
{"SMILES": "NNc1ccccc1", "test system": "PBS", "setting": "0 h, 37 °C", "scale": "reference: initial amount", "endpoint": "remaining fraction", "result": "1 and 0.99 and 0.98"}
{"SMILES": "CC[C@@H](C)[C@@H](NC(=O)[C@@H](Cc1ccc(O)cc1)NC(=O)[C@H]1CCCN1C(=O)[C@@H](CCCNC(=N)N)NC(=O)[C@H](N)Cc1c[nH]cn1)C(=O)N[C@H](C)C(=O)N[C@H](Cc1c[nH]cn1)C(=O)N[C@H](CCCNC(=N)N)C(=O)N[C@@H](C(=O)N[C@H](Cc1ccc(O)cc1)C(=O)N[C@H](CO)C(=O)N[C@H](Cc1ccccc1)C(N)=O)C(C)C", "test system": "10% human serum", "setting": "1 h", "endpoint": "remaining compound", "result": "103% and 100% and 102%"}
{"SMILES": "CC[C@H](C)[C@H](NC(C)=O)C(=O)N[C@@H](CC(C)C)C(=O)N[C@@H](CCCNC(=N)N)C(=O)N[C@@H](Cc1c[nH]c2ccccc12)C(=O)N[C@@H](CO)C(=O)N[C@@H](CCCNC(=N)N)C(=O)N[C@@H](CCCCN)C(=O)N[C@@H](CC(C)C)C(=O)N1CCC[C@H]1C(=O)N[C@@H](CS)C(=O)N[C@H](C(=O)N[C@@H](CO)C(N)=O)C(C)C", "assay": "12G5 competition, SUP-T1 cells", "test system": "human plasma", "setting": "20 µM, 2 h, 37 °C", "endpoint": "remaining activity", "result": "78 ± 4%"}
{"SMILES": "CC(C)[C@@H]1NC(=O)CNC(=O)[C@H](CC(N)=O)NC(=O)[C@H](CCCNC(=N)N)NC(=O)[C@H](Cc2ccc(O)cc2)NC(=O)[C@H](C(C)C)NC(=O)[C@@H](NC(=O)[C@@H](NC(=O)[C@H](CC(N)=O)NC(=O)[C@H](Cc2c[nH]c3ccccc23)NC(=O)[C@H](C)NC(=O)[C@H](Cc2ccccc2)NC(=O)CN)C(C)C)CSSC[C@@H](C(=O)N[C@@H](Cc2cnc[nH]2)C(=O)N[C@@H](CCCNC(=N)N)C(=O)N[C@@H](CCCNC(=N)N)C(=O)N[C@@H](C)C(=O)N[C@@H](CC(N)=O)C(N)=O)NC(=O)[C@H](C(C)C)NC(=O)[C@H](CCCNC(=N)N)NC1=O", "assay": "HPLC", "test system": "mouse liver homogenate", "setting": "2560 µM, 4.00 h, 50 mg/mL tissue", "endpoint": "remaining peptide", "result": "7.81% and 4.94% and 8.2%"}
{"SMILES": "CC(C)C[C@@H]1NC(=O)CNC(=O)[C@H](CC(N)=O)NC(=O)[C@H](CCCNC(=N)N)NC(=O)[C@H]([C@@H](C)O)NC(=O)[C@@H]2CSSC[C@@H]3NC(=O)[C@H]([C@@H](C)O)NC(=O)[C@H](CCCCN)NC(=O)CNC(=O)[C@H](C(C)C)NC(=O)[C@@H]4CSSC[C@H](NC(=O)[C@H]([C@@H](C)O)NC(=O)[C@H](CSSC[C@H](NC(=O)[C@H](C(C)C)NC(=O)[C@@H]5CCCN5C1=O)C(=O)NCC(=O)N[C@@H](CCC(=O)O)C(=O)N[C@@H]([C@@H](C)O)C(=O)N4)NC(=O)CNC(=O)[C@@H]1CCCN1C(=O)[C@H]([C@@H](C)O)NC(=O)[C@H](CC(N)=O)NC3=O)C(=O)N[C@@H](CO)C(=O)N[C@@H](Cc1c[nH]c3ccccc13)C(=O)N1CCC[C@H]1C(=O)N[C@@H](C(C)C)C(=O)N2", "assay": "HPLC", "test system": "ammonium bicarbonate 0.1 M", "setting": "180 µM, 7 days, pH 9.0, 37 °C, deamidation stability", "endpoint": "remaining peptide", "result": "76.7 ± 2.7%"}
{"SMILES": "CSCC[C@H](NC(=O)[C@H](CCCCN)NC(=O)[C@H](CCCNC(=N)N)NC(=O)[C@H](CO)NC(=O)[C@H](Cc1c[nH]c2ccccc12)NC(=O)[C@H](CCCNC(=N)N)NC(=O)[C@H](CC(C)C)NC(=O)[C@H](N)Cc1ccccc1)C(=O)N1CCC[C@H]1C(=O)N[C@@H](CS)C(=O)N[C@H](C(=O)N[C@@H](CO)C(N)=O)C(C)C", "assay": "12G5 competition, SUP-T1 cells", "test system": "human plasma", "setting": "concentration not given, 2 h", "endpoint": "remaining activity", "result": "66 ± 6%"}
{"SMILES": "CC[C@H](C)[C@H](NC(=O)[C@H](CCCCN)NC(=O)[C@H](CCC(=O)O)NC(=O)[C@H](CCCCN)NC(=O)[C@H](CO)NC(=O)[C@H](CCCCN)NC(=O)[C@H](CCCNC(=N)N)NC(=O)[C@H](Cc1ccccc1)NC(=O)[C@H](Cc1ccccc1)NC(=O)[C@H](CC(=O)O)NC(=O)CNC(=O)[C@H](CC(C)C)NC(=O)[C@@H](N)CC(C)C)C(=O)NCC(=O)N[C@@H](CCCCN)C(=O)N[C@@H](CCC(=O)O)C(=O)N[C@@H](Cc1ccccc1)C(=O)N[C@@H](CCCCN)C(=O)N[C@@H](CCCNC(=N)N)C(=O)N[C@H](C(=O)N[C@H](C(=O)N[C@@H](CCC(N)=O)C(=O)N[C@@H](CCCNC(=N)N)C(=O)N[C@H](C(=O)N[C@@H](CCCCN)C(=O)N[C@@H](CC(=O)O)C(=O)N[C@@H](Cc1ccccc1)C(=O)N[C@@H](CC(C)C)C(=O)N[C@@H](CCCNC(=N)N)C(=O)N[C@@H](CC(N)=O)C(=O)N[C@@H](CC(C)C)C(=O)N[C@H](C(=O)N1CCC[C@H]1C(=O)N[C@@H](CCCNC(=N)N)C(=O)N[C@H](C(=O)N[C@@H](CCC(=O)O)C(=O)N[C@@H](CO)C(=O)O)[C@@H](C)O)C(C)C)[C@@H](C)CC)C(C)C)[C@@H](C)CC", "assay": "LC-MS", "test system": "buffer with human neutrophil elastase", "setting": "40 µM, 720 min, pH 7.5, 37 °C", "scale": "reference: 0 h", "endpoint": "remaining intact peptide", "result": "0%"}
{"SMILES": "CC(C)C[C@@H]1NC(=O)[C@H](CC(N)=O)NC(=O)[C@H](CCCNC(=N)N)NC(=O)[C@H]([C@@H](C)O)NC(=O)[C@@H]2CSSC[C@@H]3NC(=O)[C@H]([C@@H](C)O)NC(=O)CNC(=O)CNC(=O)[C@H](C(C)C)NC(=O)[C@@H]4CSSC[C@H](NC(=O)[C@H]([C@@H](C)O)NC(=O)[C@H](CSSC[C@H](NC(=O)[C@H](C(C)C)NC(=O)[C@@H]5CCCN5C(=O)[C@H](CC(C)C)NC1=O)C(=O)NCC(=O)N[C@@H](CCC(=O)O)C(=O)N[C@@H]([C@@H](C)O)C(=O)N4)NC(=O)CNC(=O)[C@@H]1CCCN1C(=O)[C@H]([C@@H](C)O)NC(=O)[C@H](CC(N)=O)NC3=O)C(=O)N[C@@H](CO)C(=O)N[C@@H](Cc1c[nH]c3ccccc13)C(=O)N1CCC[C@H]1C(=O)N[C@@H](C(C)C)C(=O)N2", "assay": "HPLC", "test system": "ammonium bicarbonate 0.1 M", "setting": "180 µM, 7 days, pH 9.0, 37 °C, deamidation stability", "endpoint": "remaining peptide", "result": "98.1 ± 1.5%"}
{"SMILES": "CC(C)=CCC[C@](C)(O[C@@H]1O[C@H](CO)[C@@H](O)[C@H](O)[C@H]1O)[C@H]1CC[C@]2(C)[C@@H]1[C@H](O)C[C@@H]1[C@@]3(C)CC[C@H](O)C(C)(C)[C@@H]3CC[C@]12C", "test system": "rat plasma", "setting": "1 ng/mL, 24 h, room temperature", "endpoint": "remaining amount", "result": "104 ± 8.3%"}
{"SMILES": "CC(C)C[C@@H]1NC(=O)CNC(=O)[C@H](CC(N)=O)NC(=O)[C@H](CCCNC(=N)N)NC(=O)[C@H]([C@@H](C)O)NC(=O)[C@@H]2CSSC[C@@H]3NC(=O)[C@H]([C@@H](C)O)NC(=O)CNC(=O)CNC(=O)[C@H](C(C)C)NC(=O)[C@@H]4CSSC[C@H](NC(=O)[C@H]([C@@H](C)O)NC(=O)[C@H](CSSC[C@H](NC(=O)[C@H](C(C)C)NC(=O)[C@@H]5CCCN5C1=O)C(=O)NCC(=O)N[C@@H](CCC(=O)O)C(=O)N[C@@H]([C@@H](C)O)C(=O)N4)NC(=O)CNC(=O)[C@H](CCCCN)NC(=O)[C@H]([C@@H](C)O)NC(=O)[C@H](CC(N)=O)NC3=O)C(=O)N[C@@H](CO)C(=O)N[C@@H](Cc1c[nH]c3ccccc13)C(=O)N1CCC[C@H]1C(=O)N[C@@H](C(C)C)C(=O)N2", "assay": "HPLC", "test system": "water", "setting": "180 µM, 14 days, 37 °C, deamidation stability", "endpoint": "remaining peptide", "result": "99 ± 0.2%"}
{"SMILES": "CSCC[C@H](NC(=O)[C@H](CCCNC(=N)N)NC(=O)[C@H](CCCNC(=N)N)NC(=O)[C@H](CCCCN)NC(=O)[C@H](C)NC(=O)[C@H](CCCNC(=N)N)NC(=O)CNC(=O)[C@@H](NC(=O)CCNC(=O)c1ccc2c(c1)C(=O)OC21c2ccc(O)cc2Oc2cc(O)ccc21)[C@@H](C)O)C(=O)N[C@@H](CSCB(O)O)C(=O)N[C@@H](Cc1ccc(O)cc1)C(=O)N[C@@H](CSCB(O)O)C(=O)N[C@@H](CCCNC(=N)N)C(=O)N[C@@H](CCCNC(=N)N)C(N)=O", "assay": "HPLC peak area", "test system": "50% human serum", "setting": "100 µM, 6 h, pH 7.4, 37 °C", "scale": "reference: 0 h", "endpoint": "remaining peptide", "result": "68.1% and 71.2% and 70.7%"}
{"SMILES": "CC(C)C[C@@H]1NC(=O)CNC(=O)[C@H](CC(N)=O)NC(=O)[C@H](CCCNC(=N)N)NC(=O)[C@H]([C@@H](C)O)NC(=O)[C@@H]2CSSC[C@@H]3NC(=O)[C@H]([C@@H](C)O)NC(=O)CNC(=O)CNC(=O)[C@H](C(C)C)NC(=O)[C@@H]4CSSC[C@H](NC(=O)[C@H]([C@@H](C)O)NC(=O)[C@H](CSSC[C@H](NC(=O)[C@H](C(C)C)NC(=O)[C@@H]5CCCN5C1=O)C(=O)NCC(=O)N[C@@H](CCC(=O)O)C(=O)N[C@@H]([C@@H](C)O)C(=O)N4)NC(=O)CNC(=O)[C@@H]1CCCN1C(=O)[C@H]([C@@H](C)O)NC(=O)[C@H](CC(N)=O)NC3=O)C(=O)N[C@@H](CCCCN)C(=O)N[C@@H](Cc1c[nH]c3ccccc13)C(=O)N1CCC[C@H]1C(=O)N[C@@H](C(C)C)C(=O)N2", "assay": "HPLC", "test system": "ammonium bicarbonate 0.1 M", "setting": "180 µM, 7 days, pH 9.0, 37 °C, deamidation stability", "endpoint": "remaining peptide", "result": "56.7 ± 1.3%"}
{"SMILES": "CSCC[C@H](NC(=O)[C@H](CCCCN)NC(=O)[C@H](CCCNC(=N)N)NC(=O)[C@H](CO)NC(=O)[C@H](Cc1c[nH]c2ccccc12)NC(=O)[C@H](CCCNC(=N)N)NC(=O)[C@H](CC(C)C)NC(=O)[C@@H](CO)NC(C)=O)C(=O)N1CCC[C@H]1C(=O)N[C@@H](CS)C(=O)N[C@H](C(=O)N[C@@H](CO)C(N)=O)C(C)C", "assay": "12G5 competition, SUP-T1 cells", "test system": "human plasma", "setting": "20 µM, 2 h, 37 °C", "endpoint": "remaining activity", "result": "65 ± 4%"}
{"note": "A few entries again:"}
{"SMILES": "NNc1ccccc1", "test system": "PBS", "setting": "0 h, 37 °C", "scale": "reference: initial amount", "endpoint": "remaining fraction", "result": "1 and 0.99 and 0.98"}
